Measured values from different studies.
Every numbered part comes from another study and shows a few of its results, in no order. Positions count from the first letter of the parent shown.

Series 1
Target: Fragile X messenger ribonucleoprotein 1, C-terminal low-complexity region (Fmr1, Mus musculus, UniProt P35922)
Method: RNA Bind-n-Seq
Molecule type: RNA
Medium: in vitro
Concentration: 200 nM
Setting: whole 134-nt RNA, ends assumed
Added: 150 mM KCl
Reference: input library
Direction: higher = stronger binding
Quantity: log2 enrichment
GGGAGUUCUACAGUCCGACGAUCAAGUCCUGUGCUACACAUCGUAUGUACCGAAUCGGUUUUUUUGGAAAGGUUUUUGGAAAGUAUUAUGUUACGCCGUUCGGAUCUGCACUUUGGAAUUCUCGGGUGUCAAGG: -1.13
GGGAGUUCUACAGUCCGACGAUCUGGGAGGUGGAUUUUAUUUAUUUUUUUAGCUCAUUUCCAGGGGUGGGAAUUUUUUUUUAAUAUGUGUCAUGAAUAAAGUUGUUUUUGAAAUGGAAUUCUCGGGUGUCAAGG: 0.206
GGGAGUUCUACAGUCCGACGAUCGUCCUGUGCUACACAUCGUAUGUACCGAAUCGGGAAAAAAAGGGAAAAAAAGGGUGGGAAAGUAUUAUGUUACGCCGUUCGGAUCUGCACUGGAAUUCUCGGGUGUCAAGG: -0.0136
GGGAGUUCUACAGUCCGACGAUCGUCCUGUGCUACACAUCGUAUGUACCGAAUCGGGGUUUUUGGGGUUUGGGGUUUGGGGAAAGUAUUAUGUUACGCCGUUCGGAUCUGCACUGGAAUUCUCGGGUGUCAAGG: 1.05
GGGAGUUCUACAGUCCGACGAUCUGGCCCUGGUGGCAUGCGGGGAGGAAGAGGUGGCCUCAUGGAUCGUGGUGGUCCCGGUGGAAUGUUCAGGGGUGGCCGUGGUGGAGACAGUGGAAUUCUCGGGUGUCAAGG: 0.177
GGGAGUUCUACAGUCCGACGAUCCAAGUCCUGUGCUACACAUCGUAUGUACCGAAUCGGGUGGGAAAAAAAGGGUGGGAAAGUAUUAUGUUACGCCGUUCGGAUCUGCACUUCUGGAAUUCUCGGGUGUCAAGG: 0.919
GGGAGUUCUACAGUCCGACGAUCCCUGUGCUACACAUCGUAUGUACCGAAUCGGGGUUUUUUGGGGUUUUUUGGUUUUUUGGGGAAAGUAUUAUGUUACGCCGUUCGGAUCUGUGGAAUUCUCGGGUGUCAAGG: -0.566

Series 2
Target: Histone acetyltransferase KAT6A, both winged helices, GST fusion (KAT6A, Homo sapiens, UniProt Q92794, residues 1-181)
Method: protein binding microarray
Molecule type: double-stranded DNA, one strand shown
Medium: in vitro
Concentration: not given
Setting: 8-mer, flanks averaged, mean of 2 arrays, mostly near background
Reference: not given
Direction: higher = stronger binding
Quantity: E-score
Construct (chain): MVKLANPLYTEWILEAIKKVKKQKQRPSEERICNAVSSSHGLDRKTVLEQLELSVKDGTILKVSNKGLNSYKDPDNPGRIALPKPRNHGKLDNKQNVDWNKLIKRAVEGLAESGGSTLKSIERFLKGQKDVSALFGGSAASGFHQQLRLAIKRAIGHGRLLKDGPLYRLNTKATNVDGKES
CTACGCGC: 0.344
AGGGCCGG: 0.0701
CTCATACA: 0.0229
AACAGGTT: -0.168
TCCCTAGA: -0.172
AAGGCCAT: -0.077

Series 3
Target: CCNE2, cyclin fold, Cln2 fusion (human)
Method: yeast growth competition, sequencing
Medium: yeast
Setting: strong parent motif
Reference: not given
Direction: higher = stronger binding
Quantity: normalised enrichment score
Starting sequence: BRCA2 docking peptide (human); PSIKRNLLNEFDR
PSIKRNLLNEFDS [R13S]: 1.42
PSYKRNLLNEFDR [I3Y]: 3.83
PSIKKNLLNELDR [R5K F11L]: -0.192
PSIKRNLLNEFLR [D12L]: 1.56
PSIIRNLLNEFDR [K4I]: 0.439
PSIDRNLLNEFDR [K4D]: 0.198
PWIKRNLLNEFDR [S2W]: 0.343

Other studies, line by line
PhoQ, residues 284 288 289 292 302 303 TNSAEL — fold induction (PhoP, residues 12 14 15 18 19 AGCRL (Escherichia coli, UniProt P23836); Sort-seq, measured: YFP reporter; E. coli; PhoQ-PhoP variant library, added: 10 µM Mg2+; reference: high Mg2+ state, higher = stronger signaling): 6.61
